Measurements collected from several papers.
Each line is one published result; not all experiments were run side by side. Several values in a cell are separate wells, animals, samples, runs or records. ± gives the spread as reported.

SMILES	target or system	assay	test system	conditions	how to read	measurement	result
O=C(/C=C/c1ccc(O)c(O)c1)OCCc1ccccc1	Toxoplasma gondii	parasite growth	HFF, bradyzoite, glutamine-induced	–	–	EC50	8.64 µM
CCOC(=O)c1nn(-c2cccc(Cl)c2)/c(=N/N=C(\C)c2ccc(NC(=O)c3ccccc3)cc2)s1	MCF7	MTT	–	10 µM	–	cytotoxicity	97.6%
COc1ccc(NC(=O)c2c(Nc3ccccc3)sc(C(=O)NN=Cc3ccc(OC)c(O)c3)c2NC(C)=O)cc1	HepG2	annexin V-FITC/PI	–	concentration not given	–	viable cells	84.6 ± 6.23%
CCCCN1C[C@H](O)[C@@H](O)[C@@H](O)[C@H]1CO	sample B patient fibroblasts	Gb3 level lowering, LC-MS/MS, refers to: Gb3 d18:1/16:0	–	216 h	–	IC50	8.7 µM
Cn1cc(-n2cnc3c(NCc4nc5cc(Cl)c(Cl)cc5[nH]4)nc(N4CCOCC4)nc32)cn1	MDA-MB-468	cell viability, CellCounting-Lite	–	74.07 nM, 37 °C	higher = more viable cells	luminescence signal	65700 a.u. and 57800 a.u.
Cn1cc(-c2ccc(-c3cncc(Cl)c3N3CCC4(CCNC4=O)CC3)cc2)cn1	COLO 205	gene expression, microarray, refers to: CCNB1 mRNA	–	concentration not given, 6 h	reference: untreated cells	log2 fold change	-2.54
COc1cnc2cccc(N3CCc4c(cc(Cn5ccnc5C)cc4-c4cn(C)nc4C(F)(F)F)C3=O)c2c1	PSN1	cell growth, inhibitor	–	120 h	–	EC50	0.141 µM
Cc1cnc2ccc3c(c2n1)N1CCC(O)N=C1N3C (stereo not shown)	BALB/c 3T3	colony forming efficiency	–	50 µM	–	colony number	0 colonies per plate
C=CC1=C(C)c2cc3[n-]c(cc4nc(cc5[n-]c(cc1n2)c(C)c5C=C)C(C)=C4CCC(=O)O)c(CCC(=O)O)c3C.[Zn+2]	SH-SY5Y	RNA-seq, refers to: FGF5 mRNA	–	5 µM, 5 h	reference: untreated cells	fold change	2.69
CCn1cc(-c2cc(Cn3ccnc3)cc3c2CCN([C@H](c2cc(OC)ccn2)C2CC2)C3=O)c(C(F)(F)F)n1	NCI-H1792	cell growth, inhibitor	–	120 h	–	EC50	6.82 µM
Cc1ccc(NC(=O)[C@H]2CCCN(C(=O)c3c(C)cccc3F)[C@H]2c2ccc(NC3CCCC3)cc2)cc1C(F)(F)F	human peripheral blood neutrophils	flow cytometry FSC/SSC	–	1 µM, added: TNF-α 5 ng/mL, MPO-ANCA immune complex	reference: unstimulated neutrophils	neutrophil swelling	2.79 fold change and 2.6 fold change and 4.04 fold change and 3.01 fold change
O=C1c2ccccc2C(=O)c2c(NCCc3ccc(O)cc3)ccc(NCCc3ccc(O)cc3)c21	Toxoplasma gondii	tachyzoite growth, luciferase	ME49-Fluc, type II	–	–	EC50	3.39 µM
C[C@H]1Oc2cc(cnc2N)-c2c(nn(C)c2C#N)CN(C)C(=O)c2ccc(F)cc21	Ba/F3 EML4-ALK variant 1 S1206Y	cell viability	–	–	–	Emax	100%
O=C(/C=C/C=C/C=C/C1CCCCC1)NC1=C[C@@](O)(/C=C/C=C/C=C/C(=O)NC2=C(O)CCC2=O)[C@@H]2O[C@@H]2C1=O	jhom1	cell growth, inhibitor, CellTiter-Glo luminescence	–	78 h	reference: day 0 cell count	GI50	> 30 µM
N#Cc1ccc(C[C@@H](NC(=O)c2cc3cc([N+](=O)[O-])ccc3[nH]2)C(=O)N2CCc3ccccc32)cc1	human neutrophils	calcium mobilization, agonist	–	–	–	EC50	> 50 µM
NNc1nc(-c2ccc(Cl)cc2)c2c(NC(=O)c3ccccc3)nnc-2[nH]1	MDA-MB-231/ATCC	NCI60 SRB	–	10 µM	–	growth percent	77%
COc1c(C)c(OC)c(C(=O)/C=C/c2ccccc2)c(OC)c1C	FaDu	SRB	–	–	reference: normal over FaDu IC50	selectivity index	0.97
COC(=O)Nc1nc2ccc(C(=O)c3cccs3)cc2[nH]1	tsFT210 G2-synchronised	flow cytometry	–	100 nM, 4 h after release at 32 °C	–	G2/M cells	91.3%
Nc1cccc2c1C(=O)N(C1CCC(=O)NC1=O)C2=O (stereo not shown)	bone marrow CD138+ myeloma cells	XTT	–	1.4 µM, phenol red-free RPMI	–	viability	40%
CC(=O)c1nn(-c2ccc(Cl)cc2)/c(=N/N=C(\C)c2ccc(NC(=O)c3ccc(Cl)cc3)cc2)s1	MCF7	–	–	1.25 µM	–	viability	99.3%
CN1CCN(c2ccc3[nH]c(-c4ccc5[nH]c(-c6ccc(C(F)(F)F)cc6)nc5c4)nc3c2)CC1	SNB-75	SRB	–	10 µM, 48 h	–	growth percent	29.6%
[Cl-].[Cl-].[Os+2].c1cnc2c(c1)ccc1cccnc12.c1cnc2c(c1)ccc1cccnc12.c1cnc2c(c1)ccc1cccnc12	SK-MEL-28	resazurin	–	normoxia, added: red light 633 nm	reference: dark EC50 over light EC50	phototherapeutic index	2

Repeated from above:
SMILES	target or system	assay	test system	conditions	how to read	measurement	result
O=C1c2ccccc2C(=O)c2c(NCCc3ccc(O)cc3)ccc(NCCc3ccc(O)cc3)c21	Toxoplasma gondii	tachyzoite growth, luciferase	ME49-Fluc, type II	–	–	EC50	3.39 µM
C[C@H]1Oc2cc(cnc2N)-c2c(nn(C)c2C#N)CN(C)C(=O)c2ccc(F)cc21	Ba/F3 EML4-ALK variant 1 S1206Y	cell viability	–	–	–	Emax	100%
